Results from different studies.
A part holds a random share of what one study measured. Substitutions count along the parent as printed.

Block 1 — method: EMSA with sequencing; molecule type: double-stranded DNA, one strand shown; matrix: in vitro; tested at: 10 and 20 nM; relative to: negative control set to 0; direction: higher = stronger binding
Target: Hepatocyte nuclear factor 3-alpha (Foxa1, Mus musculus, UniProt P35582, residues 1-468, full length assumed)
Notes: whole designed probe, mean of two concentrations, ends assumed
All sequences stand within: GTGAGCGGTGCCCATTGATGGGGAAC … TTTCACTGGGATCGTGGGGAC
Residues (chain): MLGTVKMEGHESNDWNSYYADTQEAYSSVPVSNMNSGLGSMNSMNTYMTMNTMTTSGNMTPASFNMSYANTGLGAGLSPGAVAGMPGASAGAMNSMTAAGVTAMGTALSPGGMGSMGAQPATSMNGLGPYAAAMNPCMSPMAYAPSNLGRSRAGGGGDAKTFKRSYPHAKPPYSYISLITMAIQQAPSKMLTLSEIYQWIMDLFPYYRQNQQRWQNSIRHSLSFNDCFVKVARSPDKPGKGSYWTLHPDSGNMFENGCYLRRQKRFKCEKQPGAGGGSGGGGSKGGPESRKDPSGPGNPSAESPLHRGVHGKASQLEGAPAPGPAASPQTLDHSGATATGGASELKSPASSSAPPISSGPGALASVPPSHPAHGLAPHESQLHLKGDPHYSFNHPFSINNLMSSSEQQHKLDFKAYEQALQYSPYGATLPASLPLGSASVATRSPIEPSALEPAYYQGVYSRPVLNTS
| Oligonucleotide | normalised bound fraction [ratio] |
| --- | --- |
| ATCTTCCCCCTCTCCTCATCATACGTCCCGCCCCTTCCCGGGTTATTTGCAGATAGGAAAATAAATAAAGCCGGCATTCGTTAACCCTCTTCTGGCGCAAACTGCTGTTTGCTCTGGATGAATCATGGTCCTTTGGCGACGCCAGGCTCCGGGAGAGCAAAGCACCGTGTCAGGGCCATGATCCGGGGTGGCC | 0.336 |
| CTGCGGATCACCCCAAGGAAAATCCAGACTGATTCGATCAGTCCTAGCTGGAAGCAGCACAGGAATAGCAGGAAGCCTATGACTCATTTTAAGCAAACATCCGGTAACCCGACTGGTATCTGGTTCAAATGGGGAAACCTGAAGCACCTATGACAGGCCAGGCCCAGAGAAGATACTGCCCAGATGGATACAG | 0.129 |
| GGAAGCTCTTTGTACCCCTTTTGCAACTTTTCAGTAAATTTGCAGTTATTTCAAAATATAAAAAGTTAAACATTTGCTAGAAAAGTTTCTAAAAGATTACTCTCGGTTTCTGCTCAAGGGTGGGTGGCTTATGGTTCCCGCAGAGGCATTCCAAGTTACACGATCTGACAAGACATGGAGCGACCTGAGTTTG | -0.00023 |
| GTGTGCTAGCCTGTGAGTTTTTCTCTCCAACTAGCCTGGGTACTCAGGAAAGTGAGATCAACTTCTGGGTGGCCTTGGGTGTAGCTGACCTGTGCAATTTGGGGAGACAGTTGACATACAGATGAAAGGGGAGATGGGAAGCCATACAGAGGAAGGAGAAGATCAGGAACCAGAGATAAGATAATTCTGTAAA | 0.0181 |
| GTCAATTACGTGGGAAATAAAGATAAGGCAAATGCACTTGGTTCTCTGAACTATTCTGACATTAGAAGAAATGCCAAGTCAGCAGATATCTGCTGTTTACATTTCACAATAACCTAATCATGCATTTGCAGCTTTCTGGAGCAAAACACTAACTGTTCTCCAAACAGCCACCTGACAATCTAAGGCTGAAACA | 0.34 |
| CCAACGTATCAGTATATTCAGCTCCCCTGTTCTTTGTTCTTCATTTTAAACGTTAACTTCCTTGTTCTTTATATCTCCTTGGCCCTAGTCTCAGTAAACAACCCACCAGTTCTAATCAGTAGTTCACATCTGTTCCCCTGGTCACCTGATCCATCCTGAGTCACCCTTGGTCACCTGCTCTGTCCTGAGTCAC | 0.0978 |
| AAGTTATTACATAATGATAAAGGGGCTGATTCAGCAAGAAGATACAAGTATAAATATATATGCAATCAACACTGGAGCACCCAGATATATAAAGTAAATATTATCAGAGCTAAAGAGAGAGAGACCTCAGTACAATAATAGCTAGAGACTTTAACACCCCACCTTCAGCAACGGACATATCTCCCAGACAGAA | 0.568 |
| TACCATTCAAGAAACCTTTTTTTTTTCTTTGCGTCTGTGAGACATATGAGAAAATCAATAAATTTACTTTCTTGGAAAAATAAACACTTCCTATGTAAACAAACATAGACCTTTAGAGCAGTATAAATTGTTTGTGAAAATAGTTTAATTGCAGCAAACACACAGAAAGGATTAACTTATTTTCAGATTTGGT | 0.543 |

Block 2 — target: UBE2C UBC core domain (UniProt O00762); method: yeast two-hybrid; matrix: yeast; notes: mostly zero background; relative to: not given; direction: higher = stronger interaction
B1: RNF4 RING domain (UniProt P78317); chain TGLRPSGTVSCPICMDGYSEIVQNGRLIVSTECGHVFCSQCLRDSLKNANTCPTCRKKINHKRYHP
B2: RNF43 RING domain (UniProt Q68DV7); chain SGSSCSSAPVCAICLEEFSEGQELRVISCLHEFHRNCVDPWLHQHRTCPLCMFNITEGDSFS
B3: TRIM3 RING domain (UniProt O75382); chain VQPMDKQFLVCSICLDRYQCPKVLPCLHTFCERCLQNYIPAQSLTLSCPVCRQTSILPEQGV
B4: PHF7 RING domain (UniProt Q9BWX1); chain IQHGHVGEESCILCCEDLSQQSVENIQSPCCSQAIYHRKCIQKYAHTSAKHFFKCPQCNNRKEFPQEML
B5: NSMCE1 RING domain (UniProt Q8WV22); chain RETYPDAVKICNICHSLLIQGQSCETCGIRMHLPCVAKYFQSNAEPRCPHCNDYWPHEIPKV
B6: RNF150 RING domain (UniProt Q9ULK6); chain DKETESDFDNCAVCIEGYKPNDVVRILPCRHLFHKSCVDPWLLDHRTCPMCKMNILKALGIP
B7: TRIM52 RING domain (UniProt Q96A61); chain PMQTLQEEAVCAICLDYFKDPVSISCGHNFCRGCVTQLWSKEDEEDQNEEEDEWEEEEDEEAV
B8: RNF14 RING domain (UniProt Q9UBS8); chain IKCFNSKLFLCSICFCEKLGSECMYFLECRHVYCKACLKDYFEIQIRDGQVQCLNCPEPKCPSVATPGQVK
Construct (chain): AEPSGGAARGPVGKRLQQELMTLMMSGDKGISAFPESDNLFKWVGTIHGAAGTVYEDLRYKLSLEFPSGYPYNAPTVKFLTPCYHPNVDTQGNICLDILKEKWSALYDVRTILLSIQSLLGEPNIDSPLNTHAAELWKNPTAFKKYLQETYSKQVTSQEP
| Molecule | lacZ reporter activity |
| --- | --- |
| ISNDSETLEECMVCSDMKRDTLFGPCGHIATCSLCSPRVKKCLICKEQVQSRTKIE (MIB1 RING domain (UniProt Q86YT6)) | 0 |
| KIKDLNEHIVCCLCAGYFVDATTITECLHTFCKSCIVKYLQTSKYCPMCNIKIHETQPLL (PCGF1 RING domain (UniProt Q9BSM1)) | 0 |
| B1 (RNF4 RING domain) | 0 |
| B2 (RNF43 RING domain) | 0 |
| QLQDEEDDSLCRICMDAVIDCVLLECGHMVTCTKCGKRMSECPICRQYVVRAVHVF (RNF34 RING domain (UniProt Q969K3)) | 0 |
| B3 (TRIM3 RING domain) | 0 |
| MANWVFCNRCFQPPHRTSCFSLTNCGHVYCDACLGKGKKNECLICKAPCRTVLLSK (RNF212 RING domain (UniProt Q495C1)) | 0 |
| B4 (PHF7 RING domain) | 0 |
| KRQCSDVDDICSICQAEFQKPILLICQHIFCEECMTLWFNREKTCPLCRTVISDHINKW (RNFT1 RING domain (UniProt Q5M7Z0)) | 0 |
| B5 (NSMCE1 RING domain) | 0 |
| B6 (RNF150 RING domain) | 0 |
| SYEDKSNDFVCPICFDMIEEAYMTKCGHSFCYKCIHQSLEDNNRCPKCNYVVDNIDHLY (COP1 RING domain (UniProt Q8NHY2)) | 0 |
| B7 (TRIM52 RING domain) | 0 |
| B8 (RNF14 RING domain) | 0 |

Block 3 — target: CCND2, cyclin fold, Cln2 fusion (human); method: yeast growth competition, sequencing; matrix: yeast; notes: weak parent motif; relative to: not given; direction: higher = stronger binding
Starting sequence: CDKN1A docking peptide (human); SKACRRLFGPVDS; partner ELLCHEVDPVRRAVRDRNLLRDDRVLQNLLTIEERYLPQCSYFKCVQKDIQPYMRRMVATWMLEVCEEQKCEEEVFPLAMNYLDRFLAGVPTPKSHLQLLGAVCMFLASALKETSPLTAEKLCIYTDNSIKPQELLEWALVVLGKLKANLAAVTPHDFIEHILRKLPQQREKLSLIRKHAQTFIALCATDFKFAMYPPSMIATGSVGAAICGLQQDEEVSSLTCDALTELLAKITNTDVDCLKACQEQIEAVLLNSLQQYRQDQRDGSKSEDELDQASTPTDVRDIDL
| Change | normalised enrichment score |
| --- | --- |
| V11C | 0.626 |
| R5G | 0.218 |
| R5Q | 0.0448 |
| P10I | 0.3 |
| R5E | 0.0236 |
| D12L | 0.0976 |
| L7A | -0.045 |
| L7E | 0.227 |
| G9K | -0.0648 |
| P10A | 0.493 |
| G9E | 0.667 |
| R5F | -0.175 |
| P10C | 0.0345 |
| A3F | -0.428 |
| R6V | 0.619 |
| V11F | 0.148 |
| L7M | 0.287 |
| C4T | 0.169 |
| R6C | 0.634 |
| A3T | 0.54 |
| A3M | -0.12 |
| D12A | 0.0918 |
| R6D | 0.0672 |
| P10E | 0.226 |
| K2C | 0.348 |

Block 4 — method: RNA Bind-n-Seq; molecule type: RNA; matrix: in vitro; tested at: not given; relative to: input RNA pool; direction: higher = stronger binding
Target: RING finger protein unkempt homolog, zinc fingers 1-6, GST-SBP tag (UNK, Homo sapiens, UniProt Q9C0B0, residues 30-357)
Sequence of UniProt Q9C0B0 (30-357, looked up): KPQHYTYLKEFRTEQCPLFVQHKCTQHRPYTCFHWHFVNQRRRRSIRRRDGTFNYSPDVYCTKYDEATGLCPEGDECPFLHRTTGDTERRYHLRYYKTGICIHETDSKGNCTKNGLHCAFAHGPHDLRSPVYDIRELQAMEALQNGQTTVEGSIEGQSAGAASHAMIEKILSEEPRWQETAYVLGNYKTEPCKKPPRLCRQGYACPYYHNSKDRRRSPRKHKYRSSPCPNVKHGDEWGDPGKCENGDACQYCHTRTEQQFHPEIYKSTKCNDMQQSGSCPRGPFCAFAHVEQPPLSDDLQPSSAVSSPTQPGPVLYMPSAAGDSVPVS
Notes: RNA with constant flanks, human-mouse chimeric sites, ends assumed
All sequences stand within: GGGAGUUCUACAGUCCGACGAUC … CAACAGAGGAUUGAGCAUCA
| Oligonucleotide | bound/input enrichment |
| --- | --- |
| GUGACUGGUGUUAAGAUUUACCCUCAGCAAAGAAGUGUAGCAGUGACCAUAAUUCCAUCUGUGGUGAGUGCCAGUCAGAUUGUGGAGCUGGUCCCAGACCUCAGUUUAGACAUGGGAACU | 0.351 ratio |
| UCAGGAACCCAGACAAACAUGAAUGUAAAUGAAGUCAUUAGCAACAGAGCAAUUGAAAUGUUAGGAGGUGAACUUGGCAGCAAGAAGCCUGUGCAUCCCAAUGAUCAUGUUAACAAAAGC | 0.262 ratio |
| GAUAAGAAAAGCUUGUUGGAGACCCGCUUGCAUGUCACUGGUAGAGAACUGAGGUCCCAAAUAGCUGAAACUUUCGGACUUCAAGAAAAUUACAUCAAGAUCGUAAUAAAUAAGAAACAG | 0.348 ratio |
| UACUCAACUUUCUUGCCACAUUUUGAAUUCCAAGAUGUUAUUCCUCCAGAUGACUUCCUAACUAGUGAUGAAGAGCAAGAUUUGGUUUUAUUUGGAACUAUGAGAGGACAAGUUGUUGGA | 0.322 ratio |
| GUAAUGGACGUUAAUACUGCUCUACAAGAGGUGCUGAAGACUGCCCUCAUCCACGAUGGCCUAGCACGUGGCAUACGCGAAGCUGCCAAAGCCUUAGACAAGCGCCAAGCCCAUCUGUGU | 0.153 ratio |
| UGUGCAUAUGAUGCUUGAGAUGGUUUUUGCAGAUGCAGAAAUCGCUGCAAGGUAAUCACAAUAGAUAAAAGUGGUAUUUUAAACCUUUGAAAGGAAUGGAUGUAACUGUACCUUGGUACA | 0.347 ratio |
| UUAAUCCCCUUUACUGCUCCCCCACUUCUCAUGGUAAUAACAAAGUCUUAUAUCCCCGUCCUAGCUUUCACUCAGAUGGCUUAUGGAGCCGGUUUCCUAUCUUUCUUGGGUGGGAUCAGA | 0.303 ratio |
| GUUCGACUCUGGGAUCAUGCCACAAUGACAGAAGUGAAAUCUCUGAAUUUUAAUAUGUCUGUUAGUAGCAUGGAGUAUAUUCCUGAAGGAGAGAUUUUGGUUAUUACUUAUGGACGAUCU | 0.226 ratio |
| GAUCAUGAACCACCAUCAGAAAUGAAGAUGAGAUUACCCAGACGAGCCCAAAACCGCGCGCUACAGAAAAGUAAACUUAACCUUGCAGAGUUCCUUAAAUGAAGAUCAAGUUAAGAGAGC | 0.312 ratio |
| UCCCAAAUUAUAAGGCAAGAAGGAGCCUUGAGACAAACACUCCACACACAGGGAAGGCGAUAACAUUGUACAUUGGUUUACAUUUUUCUCCUUGAAUGAUUUUUCUAGAGGUCAUAGUGC | 0.461 ratio |
| AAAGAGAAACUAAAGCAACUAAUAGAGAAGAGGAUUGGCAAAGAGAAUUUCAUAGAGAAACUAGGAUUUUAUUAGCAACAUGAGUUAUAUUCCAGAGCGUCUCAGAAACCCCAGCCAAAC | 9.79 ratio |
